Experimental data gathered from unrelated publications.
Lines come from different studies, so protocols differ.
Organism: Escherichia coli

CC[C@H](C)[C@H](NC(=O)[C@H](C)NC(=O)[C@@H](NC(=O)[C@H](CC(=O)O)NC(=O)[C@H](CCCCN)NC(=O)[C@H](CO)NC(=O)[C@@H](NC(=O)[C@H](CC(N)=O)NC(=O)[C@H](C)NC(=O)[C@@H](NC(=O)[C@H](CCC(=O)O)NC(=O)[C@H](CCCCN)NC(=O)[C@@H](NC(=O)[C@@H](NC(=O)[C@H](Cc1c[nH]cn1)NC(=O)[C@H](CCCCN)NC(=O)[C@@H](NC(=O)[C@H](CCCCN)NC(=O)[C@H](CCCCN)NC(=O)[C@@H](NC(=O)[C@H](CC(C)C)NC(=O)[C@H](CCCCN)NC(=O)[C@H](CC(N)=O)NC(=O)[C@H](Cc1ccccc1)NC(=O)[C@H](CCCNC(=N)N)NC(=O)[C@H](CCCCN)NC(=O)[C@H](CCCNC(=N)N)NC(=O)[C@H](Cc1ccccc1)NC(=O)CN)C(C)C)C(C)C)[C@@H](C)O)[C@@H](C)CC)[C@@H](C)O)C(C)C)C(C)C)C(=O)N[C@H](C(=O)N[C@@H](C)C(=O)NCC(=O)N[C@@H](CO)C(=O)NCC(=O)N[C@H](C(=O)N[C@@H](C)C(=O)N[C@H](C(=O)NCC(=O)N[C@@H](C)C(=O)N[C@@H](C)C(=O)N[C@@H](CCSC)C(N)=O)C(C)C)C(C)C)C(C)C
MIC (ATCC 25922, CAMHB with 10% mouse serum): 0.125 µg/mL

CC(C)C[C@@H](NC(=O)[C@H](NC(=O)[C@@H](CCCCN)NC(=O)[C@@H](CCCCN)NC(=O)[C@@H](CC(C)C)NC(=O)[C@@H](Cc1c[nH]c2ccccc12)NC(=O)[C@@H](CCCCN)NC(=O)[C@@H](Cc1c[nH]c2ccccc12)NC(=O)[C@@H](CC(C)C)NC(=O)[C@@H](CCCCN)NC(=O)[C@@H](CCCCN)NC(=O)[C@H](N)C(C)C)C(C)C)C(N)=O
MIC (24 h, 37 °C, Mueller-Hinton broth, NH4Cl 6 µM): 8 µM

CC[C@H](C)[C@H](N)C(=O)N[C@@H](CCCNC(=N)N)C(=O)N[C@H](C(=O)N[C@@H](Cc1c[nH]c2ccccc12)C(=O)N[C@@H](Cc1ccccc1)C(=O)N[C@H](C(=O)N[C@@H](CCCCN)C(=O)N[C@H](C(=O)N[C@@H](CCCNC(=N)N)C(=O)N[C@@H](CCCCN)C(=O)N[C@@H](CCSC)C(=O)N[C@@H](CCCCN)C(=O)N[C@@H](C)C(=O)N[C@H](C(=O)N[C@@H](Cc1ccc(O)cc1)C(=O)N[C@@H](Cc1c[nH]cn1)C(=O)N[C@H](C(N)=O)[C@@H](C)O)[C@@H](C)CC)C(C)C)[C@@H](C)CC)C(C)C
MIC (broth dilution; ATCC 25922, Mueller-Hinton broth; 24 h, 37 °C): 25 µM

N=C(N)NCCC[C@@H]1NC(=O)[C@H](CCCNC(=N)N)NC(=O)[C@@H](CCCNC(=N)N)NC(=O)[C@H](C(c2ccccc2)c2ccccc2)NC(=O)[C@H](C(c2ccccc2)c2ccccc2)NC(=O)[C@H](C(c2ccccc2)c2ccccc2)NC(=O)[C@H](CCCNC(=N)N)NC1=O
MIC (ATCC BAA-2452, NDM-1 CRE): 8 µg/mL

CC(C)[C@H](NC(=O)CNC(=O)CNC(=O)[C@H](Cc1ccc(O)cc1)NC(=O)[C@H](CS)NC(=O)[C@@H](NC(=O)[C@H](Cc1c[nH]c2ccccc12)NC(=O)[C@H](Cc1ccccc1)NC(=O)[C@H](CS)NC(=O)[C@H](Cc1c[nH]c2ccccc12)NC(=O)[C@@H](N)CCCNC(=N)N)C(C)C)C(=O)N[C@@H](CS)C(=O)N[C@@H](Cc1ccc(O)cc1)C(=O)N[C@@H](CCCNC(=N)N)C(=O)N[C@@H](CCCNC(=N)N)C(=O)N[C@@H](CS)C(=O)N[C@@H](CCCNC(=N)N)C(=O)O
MIC (broth microdilution; K88): 0.34 log10 µg/mL

CC[C@H](C)[C@H](NC(=O)[C@@H](CCCNC(=N)N)NC(=O)[C@H](CCCNC(=N)N)NC(=O)[C@@H]1CCCN1C(=O)[C@@H]1CCCN1C(=O)[C@H](CCCNC(=N)N)NC(=O)[C@@H]1CCCN1C(=O)[C@H](CCCNC(=N)N)NC(=O)[C@@H]1CCCN1C(=O)[C@H](CC(C)C)NC(=O)[C@H](Cc1ccc(O)cc1)NC(=O)[C@H](Cc1ccccc1)NC(=O)[C@@H]1CCCN1C(=O)[C@H](CCCCN)NC(=O)[C@H](CC(=O)O)NC(=O)[C@@H](N)C(C)C)C(=O)N[C@@H](Cc1ccc(O)cc1)C(=O)N[C@@H](CC(N)=O)C(=O)N[C@H](CCCNC(=N)N)C(N)=O
MIC (broth microdilution; ATCC 25922; 18 h, 37 °C, 25% MHB2): 16 µg/mL

CC(C)C[C@@H]1NC(=O)[C@H](CCCNC(=N)N)NC(=O)[C@H](CCCNC(=N)N)NC(=O)[C@@H](NC(=O)[C@@H](N)CCC(=O)O)CSSC[C@@H](C(=O)N[C@@H](CCCNC(=N)N)C(=O)NCC(=O)N[C@@H](CCCNC(=N)N)C(N)=O)NC(=O)[C@H](Cc2ccc(O)cc2)NC(=O)[C@H]([C@@H](C)O)NC(=O)[C@H](C(C)C)NC(=O)[C@@H]2CSSC[C@H](NC1=O)C(=O)N[C@@H](Cc1ccc(O)cc1)C(=O)N[C@@H](CCCCN)C(=O)N[C@@H](CCC(N)=O)C(=O)N[C@@H](CCCNC(=N)N)C(=O)N2
MIC (bacterial growth, broth dilution, OD600; DH5α, LB medium; 16 h, 37 °C): 25 µM

C[C@@H](O)[C@H](NC(=O)[C@H](Cc1c[nH]c2ccccc12)NC(=O)[C@H](CCCNC(=N)N)NC(=O)[C@H](Cc1c[nH]c2ccccc12)NC(=O)[C@H](CCCNC(=N)N)NC(=O)CNC(=O)[C@@H](NC(=O)[C@H](CCCNC(=N)N)NC(=O)[C@H](CCCNC(=N)N)NC(=O)[C@H](CC(N)=O)NC(=O)[C@H](Cc1c[nH]c2ccccc12)NC(=O)[C@H](CCCNC(=N)N)NC(=O)[C@H](Cc1c[nH]c2ccccc12)NC(=O)c1ccccc1)[C@@H](C)O)C(=O)NCC(=O)N1CCC[C@H]1C(N)=O
MIC (DH5α; 16 h, 37 °C): 50 µM

CC[C@H](C)[C@H](NC(=O)[C@@H](CCCNC(=N)N)NC(=O)[C@H](CCCNC(=N)N)NC(=O)[C@H](Cc1c[nH]c2ccccc12)NC(=O)[C@H](Cc1c[nH]c2ccccc12)NC(=O)[C@H](CCCNC(=N)N)NC(=O)[C@@H]1CCCN1C(=O)[C@H](CCCNC(=N)N)NC(=O)[C@@H]1CCCN1C(=O)[C@H](CC(C)C)NC(=O)[C@H](Cc1ccc(O)cc1)NC(=O)[C@@H]1CCCN1C(=O)[C@@H]1CCCN1C(=O)[C@H](CCCCN)NC(=O)[C@H](CC(=O)O)NC(=O)[C@@H](N)C(C)C)C(=O)N[C@@H](Cc1ccc(O)cc1)C(=O)N[C@@H](CC(N)=O)C(=O)N[C@H](CCCNC(=N)N)C(N)=O
MIC (broth microdilution; MC4100; 18 h, 37 °C, 25% MHB2): 8 µg/mL

CC(C)C[C@H](NC(=O)[C@H](CCCNC(=N)N)NC(=O)CNC(=O)CNC(=O)[C@@H](N)CCCNC(=N)N)C(=O)N[C@H]1CSSC[C@@H](C(=O)N[C@H](C(=O)NCC(=O)N[C@@H](CCCNC(=N)N)C(N)=O)C(C)C)NC(=O)[C@H](C(C)C)NC(=O)[C@@H]2CSSC[C@H](NC(=O)[C@H](Cc3ccc(O)cc3)NC1=O)C(=O)N[C@@H](CCCNC(=N)N)C(=O)N[C@@H](CCCNC(=N)N)C(=O)N[C@@H](CCCNC(=N)N)C(=O)N[C@@H](Cc1ccccc1)C(=O)N2
MIC (broth dilution; K12 BW25113, Mueller-Hinton II broth; 18 h, 37 °C): 3.91 µg/mL

CC[C@H](C)[C@H](NC(=O)[C@@H](CCCNC(=N)N)NC(=O)[C@H](CCCNC(=N)N)NC(=O)[C@H](CC(=O)O)NC(=O)[C@H](Cc1c[nH]c2ccccc12)NC(=O)[C@H](CCCNC(=N)N)NC(=O)[C@@H]1CCCN1C(=O)[C@H](CCCNC(=N)N)NC(=O)[C@@H]1CCCN1C(=O)[C@H](CC(C)C)NC(=O)[C@H](Cc1ccc(O)cc1)NC(=O)[C@@H]1CCCN1C(=O)[C@@H]1CCCN1C(=O)[C@H](CCCCN)NC(=O)[C@H](CC(=O)O)NC(=O)[C@@H](N)C(C)C)C(=O)N[C@@H](Cc1ccc(O)cc1)C(=O)N[C@@H](CC(N)=O)C(=O)N[C@H](CCCNC(=N)N)C(N)=O
MIC (broth microdilution; ATCC 25922; 18 h, 37 °C, 25% MHB2): 32 µg/mL

CC(C)C[C@H](NC(=O)[C@@H](NC(=O)[C@H](CCCCN)NC(=O)[C@H](CCCCN)NC(=O)[C@H](CC(C)C)NC(=O)[C@H](Cc1c[nH]c2ccccc12)NC(=O)[C@H](CCCCN)NC(=O)[C@H](CC(C)C)NC(=O)[C@H](CC(C)C)NC(=O)[C@H](CCCCN)NC(=O)[C@H](CCCCN)NC(=O)[C@@H](N)C(C)C)C(C)C)C(N)=O
MIC (24 h, 37 °C, Mueller-Hinton broth, human serum 10%): 64 µM

C[C@H](CS)C(=O)Nc1cccc(-c2nn[nH]n2)c1
MIC (DH5a pET28-lacUV5-VIM-2; 25 µM, no meropenem): > 64 µg/mL

CC(C)C[C@H](NC(=O)[C@H](CCCCN)NC(=O)C1CCC=CCCC(NC(=O)[C@H](CCCCN)NC(=O)[C@@H](N)CC(C)C)C(=O)N[C@@H](CCCCN)C(=O)N[C@@H](CC(C)C)C(=O)N[C@@H](CCCCN)C(=O)N2CCC[C@@H]2C(=O)NCC(=O)N[C@@H](CCCCN)C(=O)N[C@@H](CC(C)C)C(=O)N[C@@H](CCCCN)C(=O)N1)C(N)=O (stereo partly shown)
MIC (broth microdilution; ATCC 25922, Mueller-Hinton broth; 18 h, 37 °C): 8 µM

CC[C@H](C)[C@H](NC(=O)[C@H](Cc1c[nH]c2ccccc12)NC(=O)[C@H](CCCNC(=N)N)NC(=O)[C@@H]1CCCN1C(=O)[C@H](CCCNC(=N)N)NC(=O)[C@@H]1CCCN1C(=O)[C@H](CC(C)C)NC(=O)[C@H](Cc1ccc(O)cc1)NC(=O)[C@@H]1CCCN1C(=O)[C@@H]1CCCN1C(=O)[C@H](CCCCN)NC(=O)[C@H](CC(=O)O)NC(=O)[C@@H](N)C(C)C)C(=O)N[C@@H](CCCNC(=N)N)C(=O)N[C@H](CCCNC(=N)N)C(=O)N[C@H](C(=O)N[C@@H](Cc1ccc(O)cc1)C(=O)N[C@@H](CC(N)=O)C(=O)N[C@H](CCCNC(=N)N)C(N)=O)[C@@H](C)CC
MIC (broth microdilution; ATCC 25922; 18 h, 37 °C, 25% MHB2): 8 µg/mL

CO[C@@H](C(N)=O)[C@H](NC(=O)c1ccc(NC(=O)[C@@H](N)Cc2ccc(O)cc2)cc1)C(=O)Nc1ccc(C(=O)Nc2ccc(C(=O)Nc3ccc(C(=O)O)c(O)c3OC(C)C)c(O)c2OC(C)C)cc1
MIC (MerR family clone; 16 h, 37 °C): > 16 µg/mL

CC[C@H](C)[C@H](NC(=O)[C@@H](CCCNC(=N)N)NC(=O)[C@H](CCCNC(=N)N)NC(=O)[C@H](CCC(=O)O)NC(=O)[C@H](Cc1c[nH]c2ccccc12)NC(=O)[C@H](CCCNC(=N)N)NC(=O)[C@@H]1CCCN1C(=O)[C@H](CCCNC(=N)N)NC(=O)[C@@H]1CCCN1C(=O)[C@H](CC(C)C)NC(=O)[C@H](Cc1ccc(O)cc1)NC(=O)[C@@H]1CCCN1C(=O)[C@@H]1CCCN1C(=O)[C@H](CCCCN)NC(=O)[C@H](CC(=O)O)NC(=O)[C@@H](N)C(C)C)C(=O)N[C@@H](Cc1ccc(O)cc1)C(=O)N[C@@H](CC(N)=O)C(=O)N[C@H](CCCNC(=N)N)C(N)=O
MIC (broth microdilution; MC4100; 18 h, 37 °C, 25% MHB2): 8 µg/mL

C=CCO/N=C(\C(=O)N[C@@H]1C(=O)N(OS(=O)(=O)O)C1(C)C)c1csc(N)n1
MIC (agar dilution; 08-85, mcr-1): 0.5 µg/mL

CCCCCCCC(=O)N[C@@H](CCN)C(=O)N[C@H](C(=O)N[C@@H](CCN)C(=O)N[C@H]1CCNC(=O)[C@H]([C@@H](C)O)NC(=O)[C@H](CCN)NC(=O)[C@H](CCN)NC(=O)[C@H](Cc2ccccc2F)NC(=O)[C@@H](CC(C)C)NC(=O)[C@H](CCN)NC1=O)[C@@H](C)O
MIC (broth microdilution; ATCC 25922, colistin-susceptible): 0.06 to 0.125 µg/mL

Excerpt of the above:
CC(C)C[C@H](NC(=O)[C@@H](NC(=O)[C@H](CCCCN)NC(=O)[C@H](CCCCN)NC(=O)[C@H](CC(C)C)NC(=O)[C@H](Cc1c[nH]c2ccccc12)NC(=O)[C@H](CCCCN)NC(=O)[C@H](CC(C)C)NC(=O)[C@H](CC(C)C)NC(=O)[C@H](CCCCN)NC(=O)[C@H](CCCCN)NC(=O)[C@@H](N)C(C)C)C(C)C)C(N)=O
MIC (24 h, 37 °C, Mueller-Hinton broth, human serum 10%): 64 µM

C[C@H](CS)C(=O)Nc1cccc(-c2nn[nH]n2)c1
MIC (DH5a pET28-lacUV5-VIM-2; 25 µM, no meropenem): > 64 µg/mL

CC(C)C[C@H](NC(=O)[C@H](CCCCN)NC(=O)C1CCC=CCCC(NC(=O)[C@H](CCCCN)NC(=O)[C@@H](N)CC(C)C)C(=O)N[C@@H](CCCCN)C(=O)N[C@@H](CC(C)C)C(=O)N[C@@H](CCCCN)C(=O)N2CCC[C@@H]2C(=O)NCC(=O)N[C@@H](CCCCN)C(=O)N[C@@H](CC(C)C)C(=O)N[C@@H](CCCCN)C(=O)N1)C(N)=O (stereo partly shown)
MIC (broth microdilution; ATCC 25922, Mueller-Hinton broth; 18 h, 37 °C): 8 µM
